# Published values from different studies.
# Numbered parts are unrelated; each lists some results of a single study.

# Set 1
# Target: Sal-like protein 4, full length isoform A (SALL4, Homo sapiens, UniProt Q9UJQ4, residues 1-1053)
# UniProt Q9UJQ4, sequence (whole entry, looked up): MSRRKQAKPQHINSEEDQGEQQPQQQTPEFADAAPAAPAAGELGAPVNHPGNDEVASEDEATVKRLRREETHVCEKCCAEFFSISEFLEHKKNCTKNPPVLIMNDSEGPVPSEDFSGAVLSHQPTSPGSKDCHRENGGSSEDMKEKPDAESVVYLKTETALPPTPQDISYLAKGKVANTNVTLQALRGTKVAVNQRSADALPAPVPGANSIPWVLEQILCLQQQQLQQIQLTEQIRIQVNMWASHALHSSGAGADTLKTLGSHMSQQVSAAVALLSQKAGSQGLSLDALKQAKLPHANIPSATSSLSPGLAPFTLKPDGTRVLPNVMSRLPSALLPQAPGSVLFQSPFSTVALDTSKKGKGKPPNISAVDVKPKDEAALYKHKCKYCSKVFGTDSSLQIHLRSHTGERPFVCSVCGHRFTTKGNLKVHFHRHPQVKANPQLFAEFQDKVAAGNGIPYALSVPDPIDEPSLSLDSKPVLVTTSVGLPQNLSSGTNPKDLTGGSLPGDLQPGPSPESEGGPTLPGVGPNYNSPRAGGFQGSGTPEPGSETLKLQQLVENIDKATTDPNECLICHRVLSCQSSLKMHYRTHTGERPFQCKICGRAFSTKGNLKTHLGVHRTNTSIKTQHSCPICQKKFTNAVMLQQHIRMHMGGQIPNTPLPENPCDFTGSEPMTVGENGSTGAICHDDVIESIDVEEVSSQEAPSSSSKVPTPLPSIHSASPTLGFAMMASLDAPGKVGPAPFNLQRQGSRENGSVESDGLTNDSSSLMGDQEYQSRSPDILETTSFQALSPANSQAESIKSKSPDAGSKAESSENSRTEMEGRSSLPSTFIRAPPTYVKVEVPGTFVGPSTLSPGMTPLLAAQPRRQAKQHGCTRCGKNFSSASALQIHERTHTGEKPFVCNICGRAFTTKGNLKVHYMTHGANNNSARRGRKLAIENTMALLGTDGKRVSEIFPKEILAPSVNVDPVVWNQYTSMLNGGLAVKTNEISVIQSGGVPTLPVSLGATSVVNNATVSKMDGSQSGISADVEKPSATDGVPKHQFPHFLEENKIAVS
# Method: universal PBM
# Molecule type: double-stranded DNA, one strand shown
# Matrix: in vitro
# Concentration: 600 nM
# Notes: 8-mer, flanks averaged, mean of replicates
# Direction: higher = stronger binding
Oligonucleotide,E-score
ATCCAAAC,0.0868
GTAACCAC,-0.116
CCTTGCTC,-0.233
CAAAAGCC,-0.0311
GACCGACA,-0.226
CCAAAACC,-0.000915
GCGCCCGC,-0.313
ACTATTTA,0.279
CTCTTATC,0.123
CTTAAAGA,0.0856
AACCCCAA,-0.0182
GTCACATA,0.198
AAGCTGAC,-0.0418
ATCGGCAT,0.233
ACTTCGAA,0.135
TCAATCCA,0.000395
ACACGCGC,-0.228

# Set 2
# Target: Centromere-binding protein 1, full length, N-terminal tag (CBF1, Saccharomyces cerevisiae, UniProt P17106, residues 1-351)
# UniProt P17106, sequence (whole entry, looked up): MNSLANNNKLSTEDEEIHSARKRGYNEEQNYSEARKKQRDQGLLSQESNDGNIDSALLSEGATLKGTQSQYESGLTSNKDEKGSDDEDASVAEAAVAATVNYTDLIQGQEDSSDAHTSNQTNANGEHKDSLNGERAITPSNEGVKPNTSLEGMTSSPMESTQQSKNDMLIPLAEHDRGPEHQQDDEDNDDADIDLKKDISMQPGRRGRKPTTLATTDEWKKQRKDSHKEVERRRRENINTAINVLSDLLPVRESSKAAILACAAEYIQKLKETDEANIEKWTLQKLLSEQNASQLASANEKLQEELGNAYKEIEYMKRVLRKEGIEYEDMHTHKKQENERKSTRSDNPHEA
# Method: protein-binding microarray
# Molecule type: double-stranded DNA, one strand shown
# Matrix: in vitro
# Concentration: 0.8 µM
# Notes: whole 60-bp probe, no competitor
# Direction: higher = stronger binding
Oligonucleotide,fluorescence intensity [a.u.]
CTAAACGACTATATGCACGTTGCAGTATTGTTCTTCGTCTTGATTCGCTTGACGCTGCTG,713
CTAACTATTCTTATTAACGTGGTAATATTAAAGTTCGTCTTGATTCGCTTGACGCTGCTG,635
CTAGTATTTGAATGACACGTTGCCTTCATTCCTTTCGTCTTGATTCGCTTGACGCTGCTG,640
CTACACAAGGAATAACACGTGACATTTTTCTTTTTCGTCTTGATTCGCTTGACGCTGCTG,12400
CTAATGTTACCCTATCGTGTGCAATTTTTATTTTTCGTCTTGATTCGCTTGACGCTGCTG,571
GAATGAGATGTAAATTACGTGAATTCCTCCGGTTAGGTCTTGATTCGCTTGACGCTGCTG,512
GAACCTCGAATGTTGCACGCCCAGAGAACTTTATAGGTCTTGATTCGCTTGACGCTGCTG,548
TGTACGAAGCTATTGCACGTCCTTATAGTAGTTAGGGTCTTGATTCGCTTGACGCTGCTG,527
CTACTCTCAAATTCTCACGAGATTATTTGACTTTTCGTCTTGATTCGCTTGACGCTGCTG,604
TGTACGAAGCTATGTGACTTGTATATAGTAGTTAGGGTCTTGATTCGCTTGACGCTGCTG,575
CTATCAAAATTAAATCACGCTGCAACATTGGTGTTCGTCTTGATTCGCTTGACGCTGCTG,999
CTAGTTTCCATTTGCCACGTTGCTTTGCCTTCTTTCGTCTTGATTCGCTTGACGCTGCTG,525
CCTAACTACTATAGTCACGTGACATAGCTTCGTACAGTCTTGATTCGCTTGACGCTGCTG,55000
CCTAACTACTATAGTCTGGTGATATAGCTTCGTACAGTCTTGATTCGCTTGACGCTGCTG,545
CTAACGCAGCAAACCGTGATCACTGCGAGTATTTTCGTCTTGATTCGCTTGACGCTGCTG,665
CTAGAAAAAGGGAATCAGGAGGCACGGTACCTGTTCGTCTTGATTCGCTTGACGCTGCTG,661
GAAATCATGCTTTGCCATGTGATGCCCAATAGATAGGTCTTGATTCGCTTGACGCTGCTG,2550
CTATTTAAGTCTTGTCACATGACATAATAATAATTCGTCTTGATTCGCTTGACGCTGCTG,9350
GAAAGTATATATTGTCACGATTGTGGTTCATTATAGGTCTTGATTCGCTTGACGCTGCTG,663
TGTACGAAGCTATGTGATCAGTATATAGTAGTTAGGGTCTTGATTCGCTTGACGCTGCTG,594
CTATCACTATGCACTGATGACGTCATTGTCAATTTCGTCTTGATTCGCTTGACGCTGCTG,546
CTATTTTATATTACTCATCAGTTGTGTGTGAAATTCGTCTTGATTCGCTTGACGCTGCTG,607

# Set 3
# Target: Ras GTPase-activating protein-binding protein 1, C-terminal RGG region (G3BP1, Homo sapiens, UniProt Q13283)
# UniProt Q13283, sequence (whole entry, looked up): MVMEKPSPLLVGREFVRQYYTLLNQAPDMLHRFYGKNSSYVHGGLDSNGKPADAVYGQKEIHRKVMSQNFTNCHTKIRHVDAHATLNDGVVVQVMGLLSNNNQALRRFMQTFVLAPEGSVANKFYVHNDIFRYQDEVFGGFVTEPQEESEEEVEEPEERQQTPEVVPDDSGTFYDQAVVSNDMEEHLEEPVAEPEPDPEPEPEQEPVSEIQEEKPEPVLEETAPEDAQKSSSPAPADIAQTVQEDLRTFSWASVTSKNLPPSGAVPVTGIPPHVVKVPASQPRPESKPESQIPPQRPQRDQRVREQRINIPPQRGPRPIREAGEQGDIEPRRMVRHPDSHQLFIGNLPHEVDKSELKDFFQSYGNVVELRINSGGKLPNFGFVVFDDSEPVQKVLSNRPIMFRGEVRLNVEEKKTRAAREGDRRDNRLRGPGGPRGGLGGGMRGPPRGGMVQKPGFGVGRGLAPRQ
# Method: RNA Bind-n-Seq
# Molecule type: RNA
# Matrix: in vitro
# Concentration: 1 µM
# Notes: whole 134-nt RNA, ends assumed
# With: 150 mM KCl
# Reference: input library
# Direction: higher = stronger binding
Oligonucleotide,log2 enrichment
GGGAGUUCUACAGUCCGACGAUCCAAGUCCUGUGCUACACAUCGUAUGUACCGAAUCGGGGAAGGGGAAGGGGAAGGGGAAAGUAUUAUGUUACGCCGUUCGGAUCUGCACUUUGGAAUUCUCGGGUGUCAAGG,3.13
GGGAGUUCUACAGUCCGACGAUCUAGUGAAAUUUCUAAUAUAUAUAUUUUUUUCUUUAGGAGAAGAAACGAAUGCAUCAGAUCAACAGAAUGAACCCCAGUUAGGCCUGAAAGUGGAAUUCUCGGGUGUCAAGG,-1.63
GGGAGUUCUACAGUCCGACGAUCACCAUGCAGGUGGGCCUCUUUGGGAAGUGGGGCAAGGGGGGGAUAGGGAGGGGGGUAACACUUUGGGAACAGGUGGUCCCAGGUCGUUUCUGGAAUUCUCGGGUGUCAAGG,-1.31
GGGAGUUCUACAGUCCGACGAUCCCUCAAGUCCUGUGCUACACAUCGUAUGUACCGAAUCGGGGAAGGAAGGAAGGAAAGUAUUAUGUUACGCCGUUCGGAUCUGCACUUCCAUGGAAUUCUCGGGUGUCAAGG,-1.34
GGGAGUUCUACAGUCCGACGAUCCUUAUGCCUUCCCCACUGGUAUUGAGGGUUUUGAUAAUAAAUUGGUAGGAAAAAAAAGUACCUCCUAGAAGGAAGCCUUCCCCACCAUUUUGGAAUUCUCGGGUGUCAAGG,-0.552
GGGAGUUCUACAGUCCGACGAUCACCAUGCAGGUGGGCAACUUUGGGAAGUGGGGCAAGGGGGGGAUAGGGAGGGGGGUAACACUUUGGGAACAGGUGGUCCCAGGUCGUUUCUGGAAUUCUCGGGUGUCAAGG,-1.22
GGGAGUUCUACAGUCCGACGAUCGUCCUGUGCUACACAUCGUAUGUACCGAAUCGGGUUUUUGGGUUUUUUUGGGUUUGGGAAAGUAUUAUGUUACGCCGUUCGGAUCUGCACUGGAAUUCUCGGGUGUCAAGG,-0.283
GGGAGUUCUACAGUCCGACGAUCUGGCCCUGGUGGCAUGCGGGGAGGAAGAGGUGGCCUCAUGGAUCGUGGCGGUCCCGGUGGAAUGUUCAGAGGUGGCCGUGGUGGAGACAGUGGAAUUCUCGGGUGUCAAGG,0.241
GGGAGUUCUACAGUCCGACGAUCACCAUGCAGGUGGGCAUCUUUGGGAAGUGGGGCAAGGGGGGGAUAGGGAGGGGGGUAACACUUUAGGAACAGGUGGUCCCAGGUCGUUUCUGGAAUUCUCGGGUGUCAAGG,2.59
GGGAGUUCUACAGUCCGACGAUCUGGGAGGUGGAUUUUGUUGAUUUUUUUAGCUCAUUUCCAGGGGUGGGAAUUUUUUUUUAAUAUGUGUCAUGAAUAAAGUUGUUUUUGAAAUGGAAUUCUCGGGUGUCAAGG,1.79

# Set 4
# Target: RING finger protein unkempt homolog, zinc fingers 1-6, GST-SBP tag (UNK, Homo sapiens, UniProt Q9C0B0, residues 30-357)
# UniProt Q9C0B0, sequence (30-357, looked up): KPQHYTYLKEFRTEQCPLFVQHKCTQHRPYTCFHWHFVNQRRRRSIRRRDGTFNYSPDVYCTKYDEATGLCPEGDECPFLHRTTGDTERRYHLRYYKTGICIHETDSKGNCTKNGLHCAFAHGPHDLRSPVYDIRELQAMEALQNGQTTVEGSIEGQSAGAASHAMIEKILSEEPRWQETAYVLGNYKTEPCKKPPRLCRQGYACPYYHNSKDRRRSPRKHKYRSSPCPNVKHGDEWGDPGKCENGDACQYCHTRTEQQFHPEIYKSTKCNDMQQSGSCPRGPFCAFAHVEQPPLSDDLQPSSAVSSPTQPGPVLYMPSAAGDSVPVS
# Method: RNA Bind-n-Seq
# Molecule type: RNA
# Matrix: in vitro
# Concentration: not given
# Notes: RNA with constant flanks, ends assumed
# Reference: input RNA pool
# Direction: higher = stronger binding
Oligonucleotide,bound/input enrichment [ratio]
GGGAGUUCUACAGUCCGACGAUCCCUCGGGAACGGGACUACUUAAAAACAGUCUUACACAGAAUUUAUGGCAAGUUUCUUGGUCUCCGAGCAUUUAUCCGAAAACAGAUUAACAAUAUUUUUCUAAGGUUUGUUUAUGAAACACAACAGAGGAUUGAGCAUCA,0.458
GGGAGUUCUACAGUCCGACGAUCAUGGGCCUAUUUGUUUGGUGCUGGCACCAACUCGGGAACUGGCCCAACAGGUGCAGCAAGCCGCUGCUGAAUAUUGUAGAGCAUGUCGCUUGAAGUCUACUUGUAUCUACGGUGGUGCUCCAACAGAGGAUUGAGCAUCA,0.181
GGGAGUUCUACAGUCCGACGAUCAGGAAAAACCAAACUACAAAGAGAUUUGUUUAUAAUAUACCGCCUAACAGUGAGACAAAGGCCGAAGAUUGCUCAGUGAUGCAGCCCCCUGCUGCCUACCCAGAAGAAAGCAAGGCCUUACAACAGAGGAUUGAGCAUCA,0.261
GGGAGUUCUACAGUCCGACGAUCGAUUAUUUAUUCAAGUUACUUCUGAUUGGCGAUUCUGGGGUUGGAAAGUCCUGCCUUCUCCUCCGGUUUGCAGAUGAUACGUAUACGGAAAGCUACAUCAGCACAAUUGGUGUGGAUUUCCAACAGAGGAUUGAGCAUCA,0.216
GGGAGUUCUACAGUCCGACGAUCAGUGCCUAUGAUUAUACAAUAUCACCCAUGGAGAAAGCCAUCGUGAAGACAGACAUUCAGACCGCUGUCCCUUCUGGGUGCUAUGGAAGAGUAGCUCCACGUUCUGGCUUGGCUGUAAAGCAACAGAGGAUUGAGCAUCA,0.123
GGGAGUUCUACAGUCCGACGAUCUCUUUAUUCCUUCCUUUUCCUUUUUUUCUUUUUUUUUUCUUUUUUUUUUUUUUUUUUUGGCCGUUGUUGUUACCCACGCCAUUUUACGUCUCCUUCACUGAAGGGCUAGAGUUUUAACUUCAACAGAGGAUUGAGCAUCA,6.49
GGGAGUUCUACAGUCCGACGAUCUCAGGAUACUGUAGUUUCCUCUAUCUAAUAGAGAACUUUUUGUUAACAGACACUGUAAAACCGUUUUGCUUUGUUGAAUAAUACGUGUGUACCUAAAAGAGGUAAGAGCAAAAAGUGUAACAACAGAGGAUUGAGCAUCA,0.377
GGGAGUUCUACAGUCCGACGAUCGCCAAUAUCAAACGAGAACAGGGAAACAUUGAAGAGGCAGUUCGCUUGUAUCGUAAAGCAUCCGAAGUCUUCCCAGAGUUUGCUGCUGCCCAUUCAAAUUUAGCAAGUGUACUGCAGCAGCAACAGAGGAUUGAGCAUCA,0.323

# Excerpt of the above (set 2):
Oligonucleotide,fluorescence intensity [a.u.]
CTATCAAAATTAAATCACGCTGCAACATTGGTGTTCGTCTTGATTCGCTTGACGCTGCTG,999
CTAGTTTCCATTTGCCACGTTGCTTTGCCTTCTTTCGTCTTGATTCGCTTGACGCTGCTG,525
CCTAACTACTATAGTCACGTGACATAGCTTCGTACAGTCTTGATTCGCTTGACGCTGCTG,55000
